Measured values collected from several papers.
Each line is one published result; not all experiments were run side by side. ± gives the spread as reported.

O=C(O)COc1ccc(Br)cc1C=NNC(=O)Cc1ccccc1 (mixture of isomers)  creatinine (mouse, serum; oral, 100 mg/kg, 48 h): 0.61 ± 0.12 mg/dL
Cc1cccc(-c2ccc3nc(NC(=O)C4CCC4)nn3c2)c1  IC50 (Cyclin-dependent kinase 2, with cyclin A (CDK2, Homo sapiens, UniProt P24941); enzyme activity, inhibitor): > 100 µM
FC(F)(F)c1c(-c2ccc(N3CCNCC3)c(Cl)c2)ccn2c(CC3CC3)nnc12  compound metabolized (human liver microsomes; 5 µM, 15 min): 8%
Brc1ccccc1Nc1ncnc2[nH]ncc12  IC50 (crk3, with CYC6 (Leishmania mexicana, UniProt O15851); inhibitor, IMAP fluorescence polarisation; with: ATP 100 µM): 6 µM
NCCCN1CC(=O)N(CC(c2ccccc2)c2ccccc2)CC(=O)N(CCCN)CC(=O)N(CC(c2ccccc2)c2ccccc2)CC(=O)N(CCCN)CC(=O)N(CC(c2ccccc2)c2ccccc2)CC1=O  area increase per lipid (DPPC/cholesterol 1:1 monolayer; 20% of MIC, 23 °C, 30 mN/m): ≤ 40%
Clc1c(-c2ccc(Oc3ccccc3)cc2)ccn2c(CC3CC3)nnc12  compound metabolized (human liver microsomes; 5 µM, 15 min): 6%
